Measurements gathered from unrelated publications.
Each numbered part is a random draw from the data of one study; scales do not carry over between parts.

Block 1
Target: Max-binding protein MNT, bHLH-zipper, MAX partner unstated (MNT, Homo sapiens, UniProt Q99583, residues 220-300)
Method: protein-binding microarray
Form: double-stranded DNA, one strand shown
Matrix: in vitro
Tested at: not given
Notes: k-mer, scored over probes, only values ≥0.25
Direction: higher = stronger binding
Measurement: E-score
Construct (chain): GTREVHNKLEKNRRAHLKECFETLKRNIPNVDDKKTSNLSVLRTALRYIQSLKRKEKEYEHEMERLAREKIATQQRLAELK
ACATGAGA: 0.324
ATGCATGC: 0.38
ACGTGGCG: 0.444
CTCGTGGC: 0.43

Block 2
Target: Ras GTPase-activating protein-binding protein 1, full length (G3BP1, Homo sapiens, UniProt Q13283)
Sequence of UniProt Q13283 (whole entry, looked up): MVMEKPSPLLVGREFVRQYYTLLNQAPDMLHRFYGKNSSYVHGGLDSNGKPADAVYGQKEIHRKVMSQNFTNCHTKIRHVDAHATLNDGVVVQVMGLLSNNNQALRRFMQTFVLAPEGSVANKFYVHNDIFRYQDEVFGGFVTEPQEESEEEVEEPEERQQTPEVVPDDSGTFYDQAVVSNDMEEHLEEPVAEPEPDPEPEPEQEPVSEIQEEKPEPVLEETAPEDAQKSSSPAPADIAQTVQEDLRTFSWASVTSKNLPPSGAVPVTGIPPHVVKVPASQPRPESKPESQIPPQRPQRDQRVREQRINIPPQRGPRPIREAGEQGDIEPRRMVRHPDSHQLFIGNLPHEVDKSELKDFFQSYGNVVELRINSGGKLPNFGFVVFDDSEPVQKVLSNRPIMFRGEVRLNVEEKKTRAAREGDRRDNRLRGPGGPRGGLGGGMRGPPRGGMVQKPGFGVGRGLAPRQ
Method: RNA Bind-n-Seq
Form: RNA
Matrix: in vitro
Tested at: 200 nM
Notes: whole 134-nt RNA, ends assumed
Added: 150 mM LiCl
Reference: input library
Direction: higher = stronger binding
Measurement: log2 enrichment
Library: 7-deaza-guanosine replaces G
GGGAGUUCUACAGUCCGACGAUCCUGUGCUACACAUCGUAUGUACCGAAUCGGGUUUUUUUGGGGUUUUUUUGGGGUUUUUUUGGAAAGUAUUAUGUUACGCCGUUCGGAUCUUGGAAUUCUCGGGUGUCAAGG: 1.84
GGGAGUUCUACAGUCCGACGAUCCAAGUCCUGUGCUACACAUCGUAUGUACCGAAUCGGAAAAAAAGGAAAAAGGAGGAAAGUAUUAUGUUACGCCGUUCGGAUCUGCACUUCUGGAAUUCUCGGGUGUCAAGG: -0.66
GGGAGUUCUACAGUCCGACGAUCUCCUGUGCUACACAUCGUAUGUACCGAAUCGGGGAAAGGGGUUUUUGGGGAAAAAGGGGAAAGUAUUAUGUUACGCCGUUCGGAUCUGCAUGGAAUUCUCGGGUGUCAAGG: 0.0075
GGGAGUUCUACAGUCCGACGAUCCAAGUCCUGUGCUACACAUCGUAUGUACCGAAUCGGGGCCCCGGCCCCGGCCCCGGAAAGUAUUAUGUUACGCCGUUCGGAUCUGCACUUUGGAAUUCUCGGGUGUCAAGG: -1.81

Block 3
Target: Centromere-binding protein 1, full length, His-tagged (CBF1, Saccharomyces cerevisiae, UniProt P17106, residues 1-351)
Sequence of UniProt P17106 (whole entry, looked up): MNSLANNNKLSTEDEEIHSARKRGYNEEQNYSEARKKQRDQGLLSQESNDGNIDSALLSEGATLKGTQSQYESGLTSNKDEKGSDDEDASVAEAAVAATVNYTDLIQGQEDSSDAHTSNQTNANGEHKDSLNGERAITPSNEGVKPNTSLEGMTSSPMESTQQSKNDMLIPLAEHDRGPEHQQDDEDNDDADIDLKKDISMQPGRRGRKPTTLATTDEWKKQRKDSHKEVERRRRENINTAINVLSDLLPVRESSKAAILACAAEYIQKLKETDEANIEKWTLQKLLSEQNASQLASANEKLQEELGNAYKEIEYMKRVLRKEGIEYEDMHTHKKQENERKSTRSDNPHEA
Method: competition protein-binding microarray
Form: double-stranded DNA, one strand shown
Matrix: in vitro
Tested at: 2 µM
Notes: whole 60-bp probe, lowest competitor level
Added: Pho4 competitor, 0.05 µM
Direction: higher = stronger binding
Measurement: fluorescence intensity
Constant ends, left off below: … GTCTTGATTCGCTTGACGCTGCTG
AAATTACTAAGTTGCCTGGTGGGTGACGCCGTATGA: 56.6 a.u.
CTTCTGTAAATTTGTCTTGTGGGTGGACGCGCCCCG: 85 a.u.
AGTAACCCTGCTTCACACATGAGAAACATTATCGCT: 74.3 a.u.
AAGTCATAGAATCACCACGTGAAAAAAAAAAAAAAA: 764 a.u.
AAAGCGGTAATTTTGCACGTGTTTTCACATATCTAT: 2460 a.u.

Further values, each from its own experiment
PhoQ, residues 284 288 289 292 302 303 SIHMAM
fold induction (PhoP, residues 12 14 15 18 19 LWHVM (Escherichia coli, UniProt P23836); Sort-seq, item: YFP reporter; E. coli; PhoQ-PhoP variant library, added: 10 µM Mg2+; reference: high Mg2+ state, higher = stronger signaling): 3.79

A few entries again (block 1):
ACATGAGA: 0.324
ACGTGGCG: 0.444
